Published values collected from several papers.
Lines come from different studies, so protocols differ.

| Compound | organism | assay | test system | conditions | MIC |
| --- | --- | --- | --- | --- | --- |
| CC[C@H](C)[C@H](NC(=O)[C@H](Cc1ccccc1)NC(=O)[C@@H](NC(=O)[C@H](CO)NC(=O)[C@@H](N)CCCNC(=N)N)[C@@H](C)CC)C(=O)N[C@@H](CCCCN)C(=O)N[C@@H](Cc1ccc(O)cc1)C(=O)N[C@@H](CCCCN)C(=O)N[C@@H](CO)C(=O)N[C@@H](CCCCN)C(=O)N1CCC[C@H]1C(=O)N[C@@H](Cc1ccccc1)C(=O)N[C@@H](CS)C(=O)N[C@@H](CCC(=O)O)C(=O)N[C@@H](CCCCN)C(=O)N[C@@H](CC(C)C)C(=O)N[C@@H](CC(C)C)C(=O)N[C@@H](CO)C(=O)N[C@@H](Cc1c[nH]c2ccccc12)C(=O)N[C@H](C(=O)N[C@@H](CCCCN)C(=O)N[C@@H](CO)C(=O)O)C(C)C | Staphylococcus haemolyticus | – | – | – | 100 µg/mL |
| N=C(N)NCCC[C@H](NC(=O)[C@H](Cc1c[nH]c2ccccc12)NC(=O)[C@H](CCCNC(=N)N)NC(=O)[C@H](Cc1c[nH]c2ccccc12)NC(=O)[C@H](Cc1c[nH]c2ccccc12)NC(=O)[C@H](Cc1c[nH]c2ccccc12)NC(=O)[C@H](CCCNC(=N)N)NC(=O)[C@H](Cc1c[nH]c2ccccc12)NC(=O)[C@@H](N)CCCNC(=N)N)C(=O)N[C@@H](Cc1ccccc1)C(N)=O | Candida albicans | broth microdilution | CGMCC 2.209, RPMI 1640-MOPS | 48 h, 30 °C, together with: MgCl2 1 mM | 32 µM |
| CC1(C)SC2C(NC(=O)C(NC(=O)C3=C(O)C(Cc4ccccc4)NC3=O)c3ccccc3)C(=O)N2C1C(=O)O (centres unmarked) | Escherichia coli | broth microdilution | Keio mutant JW0587-1 | 18 h, enterobactin-related gene | 12.5 µg/mL |
| CC[C@H](C)[C@H](NC(=O)[C@H](CCCCN)NC(=O)[C@H](CCCCN)NC(=O)[C@H](Cc1ccccc1)NC(=O)[C@@H](NC(=O)[C@@H](NC(=O)[C@H](CCCNC(=N)N)NC(=O)[C@H](Cc1ccccc1)NC(=O)[C@@H](NC(=O)[C@H](CCCCN)NC(=O)[C@H](CCCCN)NC(=O)[C@@H](N)CCSC)[C@@H](C)CC)C(C)C)[C@@H](C)CC)C(=O)N[C@@H](CC(C)C)C(=O)N[C@@H](CCCCN)C(=O)N[C@@H](CCCNC(=N)N)C(=O)N[C@@H](CC(C)C)C(=O)N[C@H](C(=O)N[C@H](C(=O)O)C(C)C)[C@@H](C)CC | Staphylococcus aureus | broth microdilution | GU-1 MRSA | 20% fetal bovine serum | 8 µg/mL |
| N=C(N)NCCC[C@H](NC(=O)[C@H](Cc1c[nH]c2ccccc12)NC(=O)[C@H](CCCNC(=N)N)NC(=O)[C@H](Cc1c[nH]c2ccccc12)NC(=O)[C@H](Cc1c[nH]c2ccccc12)NC(=O)[C@H](Cc1c[nH]c2ccccc12)NC(=O)[C@H](CCCNC(=N)N)NC(=O)[C@H](Cc1c[nH]c2ccccc12)NC(=O)[C@H](CCCNC(=N)N)NC(=O)CN)C(N)=O | Candida albicans | broth microdilution | 58288, RPMI 1640-MOPS | 48 h, 30 °C | 8 µM |
| CC1(C)SC2C(NC(=O)C(NC(=O)C3=C(O)C(Cc4ccc([N+](=O)[O-])cc4)NC3=O)c3ccccc3)C(=O)N2C1C(=O)O (centres unmarked) | Escherichia coli | broth microdilution | Keio mutant JW5195-1 | 18 h | 25 µg/mL |
| CC(C)C[C@H](NC(=O)[C@H](C)NC(=O)[C@@H](NC(=O)[C@H](CCCNC(=N)N)NC(=O)[C@H](CC(C)C)NC(=O)[C@H](Cc1c[nH]c2ccccc12)NC(=O)[C@@H]1CCCN1C(=O)[C@@H](N)CCCCN)C(C)C)C(=O)N[C@@H](CS)C(=O)N1CCC[C@H]1C(=O)NCC(=O)O | Staphylococcus lentus | broth microdilution | S | – | 64 µM |
| Cc1ncc([N+](=O)[O-])n1CCO | Bacteroides fragilis | – | – | – | 0.25 to 1 µg/mL |
| CC[C@H](C)[C@H](NC(=O)[C@H](Cc1c[nH]c2ccccc12)NC(=O)[C@@H](N)CCCCN)C(=O)N[C@H]1CSSC[C@@H](C(=O)N[C@@H](CCCNC(=N)N)C(=O)N[C@@H](Cc2c[nH]c3ccccc23)C(=O)N[C@@H](CCCNC(=N)N)C(=O)O)NC(=O)[C@H](Cc2ccc(O)cc2)NC(=O)[C@H]([C@@H](C)O)NC(=O)[C@H]([C@@H](C)CC)NC(=O)[C@H](Cc2c[nH]c3ccccc23)NC(=O)[C@H](CCCNC(=N)N)NC(=O)CNC(=O)[C@H](CCCNC(=N)N)NC(=O)[C@H](Cc2ccc(O)cc2)NC(=O)[C@H](Cc2c[nH]c3ccccc23)NC(=O)[C@H](CC(C)C)NC(=O)[C@H](CCCNC(=N)N)NC(=O)[C@H](CCCNC(=N)N)NC1=O | Corynebacterium glutamicum | – | ATCC 13032 | 37 °C | 0.78 µM |
| CC[C@H](C)C[C@H](C)CCCCCCCCC(=O)N[C@H]1C[C@@H](O)[C@@H](NCCN)NC(=O)[C@@H]2[C@@H](O)CCN2C(=O)[C@H]([C@H](O)CCN)NC(=O)[C@H]([C@H](O)[C@@H](O)c2ccc(O)cc2)NC(=O)[C@@H]2C[C@@H](O)CN2C(=O)[C@H]([C@@H](C)O)NC1=O | Kluyveromyces marxianus | broth dilution | ATCC 204093 | 48 h, 37 °C | 0.25 µg/mL |
| CC1(C)SC2C(NC(=O)C(NC(=O)C3=C(O)C(Cc4ccsc4)NC3=O)c3ccccc3)C(=O)N2C1C(=O)O (centres unmarked) | Escherichia coli | broth microdilution | JW0790-2 fiu deletion mutant | ferric iron uptake gene | 25 µg/mL |
| C[C@H](NC(=O)[C@H](CCCNC(=N)N)NC(=O)[C@H](Cc1c[nH]c2ccccc12)NC(=O)[C@H](CCCNC(=N)N)NC(=O)[C@H](Cc1c[nH]c2ccccc12)NC(=O)[C@H](Cc1c[nH]c2ccccc12)NC(=O)[C@H](Cc1c[nH]c2ccccc12)NC(=O)[C@H](CCCNC(=N)N)NC(=O)[C@H](Cc1c[nH]c2ccccc12)NC(=O)[C@@H](N)CCCNC(=N)N)C(N)=O | Candida albicans | broth microdilution | 56452, RPMI 1640-MOPS | 48 h, 30 °C | 8 µM |
| C[C@@H](O)[C@H]1C(=O)N2C(C(=O)O)=C(SCCN=CN)C[C@H]12 | Klebsiella pneumoniae | – | K2 | at emergence of KPC-137, together with: ceftazidime-avibactam, avibactam fixed | 32 µg/mL |
| CC(C)[C@H](NC(=O)[C@H](CCCNC(=N)N)NC(=O)[C@H](Cc1c[nH]c2ccccc12)NC(=O)[C@H](CCCNC(=N)N)NC(=O)[C@H](Cc1c[nH]c2ccccc12)NC(=O)[C@H](Cc1c[nH]c2ccccc12)NC(=O)[C@H](Cc1c[nH]c2ccccc12)NC(=O)[C@H](CCCNC(=N)N)NC(=O)[C@H](Cc1c[nH]c2ccccc12)NC(=O)[C@H](CCCNC(=N)N)NC(=O)CN)C(N)=O | Candida albicans | broth microdilution | alveolar fluid isolate, RPMI 1640-MOPS | 48 h, 30 °C | 8 µM |
| CC(C)C[C@H](NC(=O)CNC(=O)CNC(=O)CNC(=O)[C@H](Cc1ccc(O)cc1)NC(=O)[C@H](CC(C)C)NC(=O)[C@@H](NC(=O)CNC(=O)[C@H](Cc1ccc(O)cc1)NC(=O)[C@H](CCCCN)NC(=O)[C@H](CC(N)=O)NC(=O)[C@@H](NC(=O)[C@H](CCCCN)NC(=O)[C@H](Cc1c[nH]c2ccccc12)NC(=O)CN)[C@@H](C)O)[C@@H](C)O)C(=O)N[C@@H](CCCCN)C(=O)N[C@@H](CCCCN)C(=O)N[C@@H](CC(C)C)C(=O)N[C@@H](CC(C)C)C(=O)N[C@@H](CC(C)C)C(=O)N[C@@H](CC(C)C)C(=O)N[C@@H](CC(C)C)C(=O)N[C@@H](CCCCN)C(=O)N[C@@H](CCCCN)C(=O)N[C@@H](CC(C)C)C(=O)NCC(=O)O | Staphylococcus aureus | – | ATCC 25923 | together with: 150 mM NaCl | 16 µg/mL |
| CC(C)(C)OCC1NC(=O)C(C(=O)NC(C(=O)NC2C(=O)N3C2SC(C)(C)C3C(=O)O)c2ccccc2)=C1O (centres unmarked) | Escherichia coli | broth microdilution | Keio mutant JW5195-1 | 18 h | 50 µg/mL |
| CC(C)C[C@H](NC(=O)[C@H](CCCNC(=N)N)NC(=O)[C@H](Cc1c[nH]c2ccccc12)NC(=O)[C@H](CCCNC(=N)N)NC(=O)[C@H](Cc1c[nH]c2ccccc12)NC(=O)[C@H](Cc1c[nH]c2ccccc12)NC(=O)[C@H](Cc1c[nH]c2ccccc12)NC(=O)[C@H](CCCNC(=N)N)NC(=O)[C@H](Cc1c[nH]c2ccccc12)NC(=O)[C@@H](N)CCCNC(=N)N)C(N)=O | Candida albicans | broth microdilution | CGMCC 2.209, RPMI 1640-MOPS | 48 h, 30 °C, together with: NH4Cl 6 µM | 32 µM |
| CC1(C)SC2C(NC(=O)C(NC(=O)C3=C(O)CNC3=O)c3ccccc3)C(=O)N2C1C(=O)O (centres unmarked) | Escherichia coli | broth microdilution | Keio mutant JW0146-2 | 18 h, ferric hydroxamate uptake gene | 50 µg/mL |
| CC(C)C[C@H](NC(=O)[C@H](Cc1c[nH]c2ccccc12)NC(=O)[C@H](CC(C)C)NC(=O)[C@@H](NC(=O)[C@H](CC(C)C)NC(=O)[C@H](CCCNC(=N)N)NC(=O)[C@@H](N)CCCNC(=N)N)[C@@H](C)O)C(=O)N[C@H](C(=O)N[C@@H](CC(C)C)C(=O)N[C@@H](CCCNC(=N)N)C(=O)N[C@@H](CCCNC(=N)N)C(N)=O)[C@@H](C)O | Lactiplantibacillus plantarum | – | 7469, probiotic strain | 24 h, 37 °C, tested up to 128 µM | 32 µM |
| CC(C)C1NC(=O)C(C(=O)NC(C(=O)NC2C(=O)N3C2SC(C)(C)C3C(=O)O)c2ccccc2)=C1O (centres unmarked) | Escherichia coli | broth microdilution | Keio mutant JW0587-1 | 18 h, enterobactin-related gene | 25 µg/mL |
| [O-][N+]1=C(c2ccc(Cl)cc2)C2=NCCN2c2ccccc21 | Bacteroides spp. and Parabacteroides distasonis | – | – | – | 0.06 to 0.125 µg/mL |
| CC1(C)S[C@@H]2[C@H](NC(=O)[C@H](N)c3ccccc3)C(=O)N2[C@H]1C(=O)O | Escherichia coli | broth microdilution | Keio mutant JW5195-1 | 18 h | 6.25 µg/mL |
| CC(C)[C@H](NC(=O)[C@H](CCCNC(=N)N)NC(=O)[C@H](Cc1c[nH]c2ccccc12)NC(=O)[C@H](CCCNC(=N)N)NC(=O)[C@H](Cc1c[nH]c2ccccc12)NC(=O)[C@H](Cc1c[nH]c2ccccc12)NC(=O)[C@H](Cc1c[nH]c2ccccc12)NC(=O)[C@H](CCCNC(=N)N)NC(=O)[C@H](Cc1c[nH]c2ccccc12)NC(=O)[C@@H](N)CCCNC(=N)N)C(N)=O | Candida albicans | broth microdilution | alveolar fluid isolate, RPMI 1640-MOPS | 48 h, 30 °C | 16 µM |

For quick reference, copied from above:
| Compound | organism | assay | test system | conditions | MIC |
| --- | --- | --- | --- | --- | --- |
| C[C@@H](O)[C@H]1C(=O)N2C(C(=O)O)=C(SCCN=CN)C[C@H]12 | Klebsiella pneumoniae | – | K2 | at emergence of KPC-137, together with: ceftazidime-avibactam, avibactam fixed | 32 µg/mL |
